Literature values as cited in several papers.
Several values in a cell are separate wells, animals, samples, runs or records. Numbers after ± are the reported error.
UniProt Q9UKI8, sequence (whole entry, looked up): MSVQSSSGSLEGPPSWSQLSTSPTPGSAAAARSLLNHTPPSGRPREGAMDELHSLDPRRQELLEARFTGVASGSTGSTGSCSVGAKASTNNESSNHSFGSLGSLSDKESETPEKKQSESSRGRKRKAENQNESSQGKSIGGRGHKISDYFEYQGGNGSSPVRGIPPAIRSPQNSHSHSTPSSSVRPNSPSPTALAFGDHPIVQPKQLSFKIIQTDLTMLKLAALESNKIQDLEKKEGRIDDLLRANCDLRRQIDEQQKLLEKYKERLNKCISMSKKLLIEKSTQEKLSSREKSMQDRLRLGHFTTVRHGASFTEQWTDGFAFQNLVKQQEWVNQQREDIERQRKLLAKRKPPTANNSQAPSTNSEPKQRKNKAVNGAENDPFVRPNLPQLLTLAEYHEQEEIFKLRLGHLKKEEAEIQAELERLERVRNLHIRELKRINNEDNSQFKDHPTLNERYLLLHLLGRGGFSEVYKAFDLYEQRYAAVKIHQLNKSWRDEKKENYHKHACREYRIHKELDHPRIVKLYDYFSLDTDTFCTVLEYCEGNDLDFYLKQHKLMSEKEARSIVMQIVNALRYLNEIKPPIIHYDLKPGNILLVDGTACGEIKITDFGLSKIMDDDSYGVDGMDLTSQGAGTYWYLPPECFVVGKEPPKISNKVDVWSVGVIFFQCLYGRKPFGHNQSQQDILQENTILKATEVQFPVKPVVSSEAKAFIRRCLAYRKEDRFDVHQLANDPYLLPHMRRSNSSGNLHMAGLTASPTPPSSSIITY

SMILES = Nc1cccc2c1C(=O)N(C1CCC(=O)NC1=O)C2=O (stereo not shown); test system = relapsed refractory multiple myeloma patients; setting = dose not given, phase II, sample A patients, added: low-dose dexamethasone; measurement = overall response rate; value = 33%
SMILES = C[C@H]1COCCN1c1nc(-c2cnc(N)cc2C(F)F)nc(N2CCOCC2)n1; tested on = MG-63; measurement = GI50; value = 241 nM
SMILES = COC(=O)C1=C(C)NC(C)=C(C(=O)OC)C1c1c(-c2c(OC)ccc(OC)c2[N+](=O)[O-])nc2sccn12; assay = negative inotropic effect; test system = guinea pig, isolated left atrium; measurement = EC50; value = 360 nM
SMILES = CCCCC1(O)OC(=O)C2=C1CCC=C2 (stereo not shown); assay = ADP-induced platelet aggregation, inhibitor; test system = rabbit blood; measurement = effective dose; value = 5 mmol/L
SMILES = COc1cccc2c1C(=O)c1c(O)c3c(c(O)c1C2=O)C[C@@](O)(C(=O)CO)C[C@@H]3O[C@H]1C[C@H](N)[C@H](O)[C@H](C)O1; test system = soft tissue sarcoma incl. epithelioid; setting = dose not given; measurement = overall response rate; value = ~24%
SMILES = OC[C@H]1O[C@H](O[C@]2(CCl)O[C@H](CCl)[C@@H](O)[C@@H]2O)[C@H](O)[C@@H](O)[C@H]1Cl; assay = sensory evaluation; test system = human sensory panel, water; measurement = detection threshold; value = 13 µM and 8.77 µM
SMILES = CCNCCCNCCCNCCCNCC; test system = human patients; setting = dose not given, once daily; measurement = patients with tumour growth control; value = ~10%
SMILES = C1Cc2[nH]nc(-c3nnn[nH]3)c2C1; test system = human phase II trial; setting = dose not given; measurement = free fatty acid level; value = decreased
SMILES = COC(=O)C1=C(C)NC(C)=C(C(=O)OC)C1c1c(-c2cc(OC)c(OC)cc2[N+](=O)[O-])nc2sccn12; test system = guinea pig right atrium; setting = 5x1.000e-05 M; measurement = decrease in heart rate; value = 90 ± 0.8%
SMILES = CC1(C)S[C@@H]2[C@H](NC(=O)[C@H](N)c3ccccc3)C(=O)N2[C@H]1C(=O)O; tested on = Pseudomonas aeruginosa; test system = clinical isolate RKI-No_230/10; measurement = MIC; value = > 16 µg/mL
SMILES = COc1cccc(C=Cc2nc(=O)c3ccccc3o2)c1OC; tested on = Plasmodium falciparum; assay = whole cell extended time; test system = 3D7; setting = 72 h; measurement = IC50; value = 60 nM
SMILES = CC(C)(C)NCC(O)c1ccc(O)c(CO)c1 (stereo not shown); test system = COPD patients; setting = inhaled, 400 µg single, 6 h post-dose; how to read = relative to: placebo; measurement = trough FEV1 change from baseline; value = 0 mL
SMILES = C=CC(=O)Nc1cc(Nc2nccc(Nc3cc(Cl)c(F)cc3C(C)(C)O)n2)c(OC)cc1N1CC[C@@H](N(C)C)C1; assay = phase 2 trial; test system = human, NSCLC with brain metastases; setting = dose not given; measurement = objective response rate; value = 48.4%
SMILES = Cc1cc(C)c(CNC(=O)c2cc(Cl)c3c(c2C)O[C@@](C)([C@H]2CC[C@H](N(C)C)CC2)O3)c(=O)[nH]1; test system = relapsed/refractory PTCL patients; setting = dose not given; measurement = overall response rate; value = 55.6%
SMILES = O=C(O)c1ccc(O)c(O)c1; assay = anti-inflammatory effect; test system = mouse LPS/D-galactosamine sepsis; setting = intraperitoneal; measurement = effective dose; value = 50 mg/kg
SMILES = O=C(c1ccc(Cl)cc1)N(Cc1ccccc1)C1CCCCC1; assay = item: IL-1β, IL-6, TNF-α; test system = mouse, LPS-induced ALI; setting = dose not given; measurement = cytokine release; value = decreased
SMILES = COc1c(Cl)cccc1Nc1c(-c2ccncc2OC[C@@H]2COCCO2)[nH]c2c1C(=O)NCC2; test system = patients, NSCLC, HER2-mutant, previously treated; setting = dose not given; measurement = overall response rate; value = 59%
SMILES = O=C1CCC(N2C(=O)c3ccccc3C2=O)C(=O)N1 (stereo not shown); assay = TNF release; test system = human whole blood; setting = added: LPS; measurement = IC50; value = ~194000 nM
SMILES = CCC/C=C1\OC(=O)C2=C1CC[C@@H](O)[C@@H]2O; assay = ADP-induced platelet aggregation, inhibitor; test system = rabbit blood; measurement = effective dose; value = 5 mmol/L
SMILES = CCN(c1cc(-c2ccc(CN3CCOCC3)cc2)cc(C(=O)NCc2c(C)cc(C)[nH]c2=O)c1C)C1CCOCC1; test system = epithelioid sarcoma patients; setting = cohorts 5 and 6; measurement = combined ORR; value = 13%
SMILES = Cc1cc(-c2nccc3c2ccn3CC(=O)Nc2ccc(-c3cnccn3)cn2)ccn1; test system = mouse, bleomycin-induced pulmonary fibrosis; setting = oral, 25 mg/kg once daily, days 14-28; measurement = Ashcroft score; value = decreased
SMILES = CC(=O)O[C@H]1C(=O)[C@@]2(C)[C@H]([C@H](OC(=O)c3ccccc3)[C@]3(O)C[C@H](OC(=O)[C@H](O)[C@@H](NC(=O)c4ccccc4)c4ccccc4)C(C)=C1C3(C)C)[C@]1(OC(C)=O)CO[C@@H]1C[C@@H]2O; test system = platinum/compound-refractory ovarian cancer patients; setting = 80 mg/m2 weekly, monotherapy; measurement = median time to progression; value = 5.5 months
SMILES = COC(=O)C1=C(C)NC(C)=C(C(=O)OC)C1c1c(-c2cccc(C(F)(F)F)c2)nc2sccn12; assay = negative inotropic effect; test system = guinea pig, isolated left atrium; measurement = EC50; value = 310 nM
SMILES = OCc1cc(C(O)CNCCCCCCOCCCCc2ccccc2)ccc1O (stereo not shown); test system = COPD patients; setting = inhaled, 75 µg single, 12 h post-dose; how to read = relative to: placebo; measurement = trough FEV1 change from baseline; value = 117 mL
SMILES = COC(=O)C1=C(C)NC(C)=C(C(=O)OC)C1c1c(Cl)nc2scc(C)n12; assay = negative inotropic effect; test system = guinea pig, isolated left atrium; measurement = EC50; value = 103 nM
SMILES = C=CC(=O)Nc1cc(Nc2nccc(-c3cn(C)c4ccccc34)n2)c(OC)cc1N(C)CCN(C)C; test system = human, NSCLC patients; setting = 80 mg; measurement = objective response rate; value = 5%
SMILES = COc1ccc(Cl)c(Nc2nc3ccccc3nc2NS(=O)(=O)c2cccc(NC(=O)C(C)(C)N)c2)c1; test system = human endometrial cancer patients; setting = dose not given, phase II trial; measurement = objective response rate; value = 6%
SMILES = CCOCC1(COCC)CCC(c2n[nH]cc2CN(C)CCNC)CC1; test system = DLBCL and pancreatic adenocarcinoma, mouse xenograft; setting = dose not given; measurement = tumour growth; value = inhibited
SMILES = CN[C@@H](C)C(=O)N[C@H]1CN(S(=O)(=O)c2cccc(S(=O)(=O)N3CC[C@H]4CC[C@@H](C(=O)NC(c5ccccc5)c5ccccc5)N4C(=O)[C@@H](NC(=O)[C@H](C)NC)C3)c2)CC[C@H]2CC[C@@H](C(=O)NC(c3ccccc3)c3ccccc3)N2C1=O; test system = advanced solid tumour patients; setting = first cycle; measurement = stable disease after cycle; value = 21.7%
SMILES = Nc1cc(C(F)(F)F)c(-c2nc(N3CCOCC3)nc(N3CCOCC3)n2)cn1; tested on = TLK1 (Homo sapiens, UniProt Q9UKI8); assay = enzyme activity; setting = 10 µM; how to read = relative to: untreated; measurement = remaining activity; value = 93%
SMILES = N=C(N)NCCC[C@H](NC(=O)[C@H](CCCNC(=N)N)NC(=O)[C@H](CCCCN)NC(=O)[C@H](CCC(N)=O)NC(=O)[C@H](CCCCN)NC(=O)[C@H](Cc1ccc(O)cc1)NC(=O)[C@@H](N)CCCCN)C(=O)N[C@@H](CO)C(=O)N[C@@H](Cc1ccc(O)cc1)C(=O)N[C@@H](CCCCN)C(=O)O; test system = beagle dog tooth defect model; measurement = lowest dose dentin formation; value = 2.5 µg/tooth
SMILES = CCc1cn2c(C3C(C(=O)OC)=C(C)NC(C)=C3C(=O)OC)c(-c3cc(OC)ccc3OC)nc2s1; assay = negative inotropic effect; test system = guinea pig, isolated left atrium; measurement = EC50; value = 2240 nM
SMILES = COc1ccc(CC(C)NCC(O)c2ccc(O)c(NC=O)c2)cc1 (stereo not shown); test system = COPD patients; setting = inhaled, 12 µg single, 12 h post-dose; how to read = relative to: placebo; measurement = trough FEV1 change from baseline; value = 45 mL
SMILES = CNC(C)C1CCC(N)C(OC2C(N)CC(N)C(OC3OCC(C)(O)C(NC)C3O)C2O)O1 (stereo not shown); tested on = Pseudomonas aeruginosa; test system = clinical isolate RKI-No_82/10; measurement = MIC; value = > 8 µg/mL
SMILES = Cn1cncc1[C@@](N)(c1ccc(Cl)cc1)c1ccc2c(c1)c(-c1cccc(Cl)c1)cc(=O)n2C; test system = human adults, relapsed/refractory AML; setting = dose not given; measurement = response rate; value = 11%
SMILES = CC(=O)c1c(C)c2cnc(Nc3ccc(N4CCNCC4)cn3)nc2n(C2CCCC2)c1=O; test system = human recurrent Rb-positive glioblastoma; setting = concentration not given, 6 months, clinical study; measurement = patients progressed; value = 95%
SMILES = COC(=O)C1=C(C)NC(C)=C(C(=O)OC)C1c1c(-c2cccc(OC)c2)nc2sccn12; test system = guinea pig right atrium; setting = 5 µM, spontaneously beating; how to read = relative to: control; measurement = decrease in atrial rate; value = 94 ± 2%
SMILES = Cc1ccc(Nc2nccc(N(C)c3ccc4c(C)n(C)nc4c3)n2)cc1S(N)(=O)=O; test system = post-chemotherapy soft tissue sarcoma; setting = dose not given; measurement = duration of response; value = ~9 months
SMILES = COC(=O)C1=C(C)NC(C)=C(C(=O)OC)C1c1c(Cl)nc2sc(C)c(C)n12; assay = negative inotropic effect; test system = guinea pig, isolated left atrium; measurement = EC50; value = 81 nM
SMILES = Nc1cc(C(F)(F)F)c(-c2cc(N3CCOCC3)nc(N3CCOCC3)n2)cn1; test system = advanced solid tumour patients; setting = 12.5 and 150 mg, daily dosing, sample B patients; measurement = disease control rate; value = 41%
SMILES = CC1(C)CCC(CN2CCN(c3ccc(C(=O)NS(=O)(=O)c4ccc(NCC5CCOCC5)c([N+](=O)[O-])c4)c(Oc4cnc5[nH]ccc5c4)c3)CC2)=C(c2ccc(Cl)cc2)C1; test system = human, B-cell malignancies other than CLL/SLL; setting = dose not given; measurement = objective response rate; value = 44%
SMILES = CC(C)c1cc(Oc2c(Cl)cc(-n3nc(C#N)c(=O)[nH]c3=O)cc2Cl)n[nH]c1=O; test system = human, MASH patients; setting = dose not given; how to read = relative to: patients; measurement = fibrosis improvement by one stage; value = ≤ 26%
SMILES = F[P-](F)(F)(F)(F)F.F[P-](F)(F)(F)(F)F.[Ru+2].c1ccc(-c2ccccn2)nc1.c1ccc(-c2ccccn2)nc1.c1ccc(-c2ccccn2)nc1; test system = acetonitrile; measurement = singlet oxygen quantum yield; value = 0.56
SMILES = Cc1[nH]c(C)c(-c2ccc(OCc3ccc(OC(F)(F)F)cc3)nc2)c(=O)c1Br; tested on = Plasmodium falciparum; assay = whole cell extended time; test system = 3D7; setting = 72 h; measurement = IC50; value = 140 nM
SMILES = Nc1ccn([C@@H]2O[C@H](CO)[C@@H](O)C2(F)F)c(=O)n1; test system = metastatic pancreatic cancer patients; setting = dose not given; measurement = overall tumour response rate; value = 5.4%
SMILES = COC(=O)C1=C(C)NC(C)=C(C(=O)OC)C1c1c(C)nc2sc(C)cn12; test system = guinea pig right atrium; setting = 5x1.000e-05 M; measurement = decrease in heart rate; value = 33 ± 2.6%

Some of these lines once more:
SMILES = N=C(N)NCCC[C@H](NC(=O)[C@H](CCCNC(=N)N)NC(=O)[C@H](CCCCN)NC(=O)[C@H](CCC(N)=O)NC(=O)[C@H](CCCCN)NC(=O)[C@H](Cc1ccc(O)cc1)NC(=O)[C@@H](N)CCCCN)C(=O)N[C@@H](CO)C(=O)N[C@@H](Cc1ccc(O)cc1)C(=O)N[C@@H](CCCCN)C(=O)O; test system = beagle dog tooth defect model; measurement = lowest dose dentin formation; value = 2.5 µg/tooth
SMILES = COC(=O)C1=C(C)NC(C)=C(C(=O)OC)C1c1c(Cl)nc2scc(C)n12; assay = negative inotropic effect; test system = guinea pig, isolated left atrium; measurement = EC50; value = 103 nM
SMILES = Cc1ccc(Nc2nccc(N(C)c3ccc4c(C)n(C)nc4c3)n2)cc1S(N)(=O)=O; test system = post-chemotherapy soft tissue sarcoma; setting = dose not given; measurement = duration of response; value = ~9 months
SMILES = COc1cccc(C=Cc2nc(=O)c3ccccc3o2)c1OC; tested on = Plasmodium falciparum; assay = whole cell extended time; test system = 3D7; setting = 72 h; measurement = IC50; value = 60 nM
SMILES = COc1ccc(Cl)c(Nc2nc3ccccc3nc2NS(=O)(=O)c2cccc(NC(=O)C(C)(C)N)c2)c1; test system = human endometrial cancer patients; setting = dose not given, phase II trial; measurement = objective response rate; value = 6%
SMILES = Nc1cc(C(F)(F)F)c(-c2nc(N3CCOCC3)nc(N3CCOCC3)n2)cn1; tested on = TLK1 (Homo sapiens, UniProt Q9UKI8); assay = enzyme activity; setting = 10 µM; how to read = relative to: untreated; measurement = remaining activity; value = 93%
SMILES = CC(=O)O[C@H]1C(=O)[C@@]2(C)[C@H]([C@H](OC(=O)c3ccccc3)[C@]3(O)C[C@H](OC(=O)[C@H](O)[C@@H](NC(=O)c4ccccc4)c4ccccc4)C(C)=C1C3(C)C)[C@]1(OC(C)=O)CO[C@@H]1C[C@@H]2O; test system = platinum/compound-refractory ovarian cancer patients; setting = 80 mg/m2 weekly, monotherapy; measurement = median time to progression; value = 5.5 months
